Results of several laboratories.
Protocols differ between the studies behind these lines.
B1: MIF4GD H44A (Homo sapiens, UniProt A9UHW6); sequence looked up; chain MGEPSREEYKIQSFDAETQQLLKTALKDPGAVDLEKVANVIVDASLQDCVFSKEAGRMCYAIIQAESKQAGQSVFRRGLLNRLQQEYQAREQLRARSLQGWVCYVTFICNIFDYLRVNNMPMMALVNPVYDCLFRLAQPDSLSKEEEVDCLVLQLHRVGEQLEKMNGQRMDELFVLIRDGFLLPTGLSSLAQLLLLEIIEFRAAGWKTTPAAHKYYYSEVSD
B2: recO (Bacillus subtilis, UniProt P42095); chain MLTKCEGIVLRTNDYGETNKIVTLLTREHGKIGVMARGAKKPNSRLSAVSQPFLYGSFLMQKTSGLGTLQQGEMILSMRGIREDLFLTAYAAYVAELVDRGTEEKKPNPYLFEFILESLKQLNEGTDPDVITFIVQMKMLGVMGLYPELNHCVHCKSQDGTFHFSVRDNGFICHRCFEKDPYRIPIKPQTARLLRLFYYFDLSRLGNVSLKEETKAELKQVIDLYYEEYSGLYLKSKRFLDQMESMKHLMGENKS
B3: UGT1A9 (Homo sapiens, UniProt O60656); chain GKLLVVPMDGSHWFTMRSVVEKLILRGHEVVVVMPEVSWQLGRSLNCTVKTYSTSYTLEDLDREFKAFAHAQWKAQVRSIYSLLMGSYNDIFDLFFSNCRSLFKDKKLVEYLKESSFDAVFLDPFDNCGLIVAKYFSLPSVVFARGILCHYLEEGAQCPAPLSYVPRILLGFSDAMTFKERVRNHIMHLEEHLLCHRFFKNALEIASEILQTPVTEYDLYSHTSIWLLRTDFVLDYPKPVMPNMIFIGGINCHQGKPLPMEFEAYINASGEHGIVVFSLGSMVSEIPEKKAMAIADALGKIPQTVLWRYTGTRPSNLANNTILVKWLPQNDLLGHPMTRAFITHAGSHGVYESICNGVPMVMMPLFGDQMDNAKRMETKGAGVTLNVLEMTSEDLENALKAVINDKSYKENIMRLSSLHKDRPVEPLDLAVFWVEFVMRHKGAPHLRPAAHDLTWYQYHSLDVIGFLLAVVLTVAFITFKCCAYGYRKCLGKKGRVKKAHKSKTH
Sequence of UniProt P70323 (whole entry, looked up): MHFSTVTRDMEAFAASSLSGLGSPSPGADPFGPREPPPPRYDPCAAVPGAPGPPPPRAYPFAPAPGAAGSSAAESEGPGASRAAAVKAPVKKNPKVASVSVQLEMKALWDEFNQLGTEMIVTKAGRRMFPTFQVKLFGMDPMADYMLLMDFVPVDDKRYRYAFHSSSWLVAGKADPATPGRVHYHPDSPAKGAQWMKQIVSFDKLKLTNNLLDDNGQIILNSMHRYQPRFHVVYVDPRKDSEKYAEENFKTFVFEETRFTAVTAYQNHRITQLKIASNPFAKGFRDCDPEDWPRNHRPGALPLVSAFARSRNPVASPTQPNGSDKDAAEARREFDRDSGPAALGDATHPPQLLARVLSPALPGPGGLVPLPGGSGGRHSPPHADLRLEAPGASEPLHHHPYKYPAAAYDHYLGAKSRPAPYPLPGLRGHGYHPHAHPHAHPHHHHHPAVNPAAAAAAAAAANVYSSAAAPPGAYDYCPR
Sequence of UniProt Q14493 (whole entry, looked up): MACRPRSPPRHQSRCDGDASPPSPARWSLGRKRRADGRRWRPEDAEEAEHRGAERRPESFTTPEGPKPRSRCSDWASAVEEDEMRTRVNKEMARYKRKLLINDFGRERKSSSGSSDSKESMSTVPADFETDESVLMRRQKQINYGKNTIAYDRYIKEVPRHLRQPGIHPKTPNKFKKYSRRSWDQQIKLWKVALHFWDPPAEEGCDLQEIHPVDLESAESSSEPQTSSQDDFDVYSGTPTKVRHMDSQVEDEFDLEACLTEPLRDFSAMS
Sequence of UniProt P00742 (whole entry, looked up): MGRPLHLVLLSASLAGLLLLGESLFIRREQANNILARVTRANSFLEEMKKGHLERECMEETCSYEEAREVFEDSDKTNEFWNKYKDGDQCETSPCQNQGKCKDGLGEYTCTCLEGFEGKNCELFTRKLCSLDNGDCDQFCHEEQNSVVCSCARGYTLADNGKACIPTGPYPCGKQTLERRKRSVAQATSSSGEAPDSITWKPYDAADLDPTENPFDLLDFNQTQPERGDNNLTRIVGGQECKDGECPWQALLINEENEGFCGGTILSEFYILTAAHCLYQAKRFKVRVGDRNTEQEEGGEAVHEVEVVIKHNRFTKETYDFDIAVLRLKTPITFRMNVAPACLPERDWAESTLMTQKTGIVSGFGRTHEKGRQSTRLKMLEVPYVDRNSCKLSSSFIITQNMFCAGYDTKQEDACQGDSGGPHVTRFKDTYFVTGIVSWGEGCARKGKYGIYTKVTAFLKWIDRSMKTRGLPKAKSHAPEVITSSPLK
Sequence of UniProt P37455 (whole entry, looked up): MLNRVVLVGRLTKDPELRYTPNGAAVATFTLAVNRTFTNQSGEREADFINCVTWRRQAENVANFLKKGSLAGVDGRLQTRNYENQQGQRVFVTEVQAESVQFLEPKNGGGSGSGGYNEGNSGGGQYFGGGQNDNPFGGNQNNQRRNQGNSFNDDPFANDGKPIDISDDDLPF
Sequence of UniProt P14780 (whole entry, unmodified, looked up): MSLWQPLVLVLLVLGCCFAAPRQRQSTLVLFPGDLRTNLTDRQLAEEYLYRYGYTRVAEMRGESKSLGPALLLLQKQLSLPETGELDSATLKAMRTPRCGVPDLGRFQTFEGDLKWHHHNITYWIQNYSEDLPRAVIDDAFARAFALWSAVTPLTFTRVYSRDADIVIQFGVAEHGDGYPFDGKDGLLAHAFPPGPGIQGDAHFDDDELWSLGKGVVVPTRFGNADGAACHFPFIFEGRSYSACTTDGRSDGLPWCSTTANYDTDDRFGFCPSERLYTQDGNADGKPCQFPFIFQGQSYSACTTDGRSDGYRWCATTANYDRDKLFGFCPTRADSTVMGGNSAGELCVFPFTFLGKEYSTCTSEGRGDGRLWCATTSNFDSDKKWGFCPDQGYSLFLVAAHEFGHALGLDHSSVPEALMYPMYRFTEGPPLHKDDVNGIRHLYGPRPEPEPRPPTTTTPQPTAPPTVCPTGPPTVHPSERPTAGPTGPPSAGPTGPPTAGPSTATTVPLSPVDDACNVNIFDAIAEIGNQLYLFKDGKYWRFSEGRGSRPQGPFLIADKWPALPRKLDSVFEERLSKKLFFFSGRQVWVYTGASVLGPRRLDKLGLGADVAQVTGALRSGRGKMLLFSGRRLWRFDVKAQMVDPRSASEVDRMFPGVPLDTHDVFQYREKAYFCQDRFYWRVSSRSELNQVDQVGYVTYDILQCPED
Sequence of UniProt Q62120 (whole entry, looked up): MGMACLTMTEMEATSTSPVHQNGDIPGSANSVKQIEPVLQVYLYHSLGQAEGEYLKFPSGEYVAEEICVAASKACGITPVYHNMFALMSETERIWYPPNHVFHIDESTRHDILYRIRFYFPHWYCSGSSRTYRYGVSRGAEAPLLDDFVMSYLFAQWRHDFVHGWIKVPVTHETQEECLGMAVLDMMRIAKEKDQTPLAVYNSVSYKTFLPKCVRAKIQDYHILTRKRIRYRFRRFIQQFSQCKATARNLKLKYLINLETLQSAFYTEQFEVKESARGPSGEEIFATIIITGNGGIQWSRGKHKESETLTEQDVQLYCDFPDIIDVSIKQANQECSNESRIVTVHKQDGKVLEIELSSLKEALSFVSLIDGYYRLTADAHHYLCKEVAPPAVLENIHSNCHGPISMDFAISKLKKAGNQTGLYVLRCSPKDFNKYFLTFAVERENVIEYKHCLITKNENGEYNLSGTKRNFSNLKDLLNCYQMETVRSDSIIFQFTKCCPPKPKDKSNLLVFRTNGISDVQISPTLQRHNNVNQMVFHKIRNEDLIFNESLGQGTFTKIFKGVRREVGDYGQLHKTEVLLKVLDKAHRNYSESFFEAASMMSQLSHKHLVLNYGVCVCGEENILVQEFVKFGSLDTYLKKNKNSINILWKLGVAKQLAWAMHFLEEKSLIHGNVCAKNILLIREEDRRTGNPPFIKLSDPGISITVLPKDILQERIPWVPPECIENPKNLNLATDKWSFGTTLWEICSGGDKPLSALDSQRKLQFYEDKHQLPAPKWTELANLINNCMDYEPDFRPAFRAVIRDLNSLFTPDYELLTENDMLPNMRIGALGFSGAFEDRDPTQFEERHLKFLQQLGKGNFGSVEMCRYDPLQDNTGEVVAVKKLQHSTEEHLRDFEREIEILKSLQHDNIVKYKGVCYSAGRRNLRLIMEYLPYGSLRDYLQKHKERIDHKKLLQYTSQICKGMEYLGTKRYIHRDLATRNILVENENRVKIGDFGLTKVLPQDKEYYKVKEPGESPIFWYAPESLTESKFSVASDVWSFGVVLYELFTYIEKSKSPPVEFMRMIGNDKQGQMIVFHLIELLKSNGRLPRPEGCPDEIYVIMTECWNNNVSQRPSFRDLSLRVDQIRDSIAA

For `B1 (MIF4GD H44A)`, the koff was 0.00252 s⁻¹ (SLBP, phosphorylated, multiple sites (Homo sapiens, UniProt Q14493); SPR; pH 7.4, 25 °C, NaCl 150 mM).
`LHNHYT` gave an inhibition of 0% (peptide, human polyclonal IgM RF STR; concentration not given, 5 µg/mL mAb II-481 coated, with: RF at 50% max binding concentration).
The protease protection of `RANBP2 fragment (Homo sapiens)` is reported as 13 fold (RANGAP1/SUMO1/UBE2I RanGAP1 419-578 (Homo sapiens); SENP1 deconjugation protection; reference: RanGAP1-SUMO2 protection, higher = more protection).
For `CAND1, FlAsH label (UniProt Q86VP6)`, the dissociation half-life was 4 min (CUL2/RBX1, AMCA label on C-terminal tag (Homo sapiens); FRET or BRET; 100 nM, neddylated, with: VBC 200 nM; neddylation mix).
For `RDGAWFA`, the inhibition was 32% (peptide, human polyclonal IgM RF MCC; concentration not given, 5 µg/mL mAb II-481 coated, with: RF at 50% max binding concentration).
For `RCOR1 (UniProt Q9UKL0)`, “relative demethylation rate” read 2 fold (histone H4/SUMO3 2-92 C47S, K12 isopeptide to SUMO-3; H3K4me2 demethylation, Western blot; mononucleosomes; reference: non-sumoylated mononucleosomes, higher = faster demethylation).
`B2 (recO)` gave a kcat of 0.285 s⁻¹ (ssbA (Bacillus subtilis, UniProt P37455); RecA ATP hydrolysis, steady-state kinetics; with: RecO).
`TIMP2 N-terminal domain S4E/V6R/V18M/I35V/N38Q/S68N/V71N/H97R` has a Ki of 2.43 nM (MMP9 catalytic domain, no fibronectin 107-215 (Homo sapiens, UniProt P14780); fluorogenic substrate cleavage, inhibitor, enzyme inhibition assay; apparent).
The Vmax of `B3 (UGT1A9)` is reported as 0.0019 µmol/min/mg (O=c1c(O)c(-c2ccccc2)oc2cccc(O)c12; steady-state kinetics; pH 7.4, 37 °C).
For `Tbx1 (Mus musculus, UniProt P70323)`, the reporter activation was 12 fold activation (PITX2 1-271 (Homo sapiens, UniProt Q99697-3); LEF-1 promoter luciferase; LS-8; with: PITX2A; higher = more activation).
`SERPINC1 R45E/R46E/K114E/R129E (Homo sapiens)` gave a k2 of 6100 M⁻¹ s⁻¹ (coagulation factor Xa (UniProt P00742); steady-state kinetics; room temperature, with: heparin).
`SOCS3/ELOB/ELOC SOCS3 23-end (Mus musculus)` has an IC50 increase of 10 fold (JAK2 JH1 836-1132, pY1007/pY1008 (Mus musculus, UniProt Q62120); JAK2 kinase inhibition; with: STAT5b Y+8 substrate; reference: wild-type SOCS3, higher = weaker inhibition).
`BicD coiled-coil domain 1 (Drosophila melanogaster)` gave a run length of 2.9 µm (DYNC1H1/DYNC1I2/DYNC1LI2/DYNLT1/DYNLRB1/DYNLL1 (Homo sapiens); single-molecule TIRF).

Excerpt of the above:
For `Tbx1 (Mus musculus, UniProt P70323)`, the reporter activation was 12 fold activation (PITX2 1-271 (Homo sapiens, UniProt Q99697-3); LEF-1 promoter luciferase; LS-8; with: PITX2A; higher = more activation).
`SERPINC1 R45E/R46E/K114E/R129E (Homo sapiens)` gave a k2 of 6100 M⁻¹ s⁻¹ (coagulation factor Xa (UniProt P00742); steady-state kinetics; room temperature, with: heparin).
